Experimental data pooled from the literature.
Target: Serine/threonine-protein kinase 32A (STK32A, Homo sapiens, UniProt Q8WU08)

Structure (SMILES)	observed	action	technique	concentration	reference	quantity	result
CC(C)=CC1OC(C)(C)C2C=C3C(=O)C(Cl)=CC(O)C3C3C(O)C4OC4C(=O)C132 (stereo not shown)	cell-free assay	–	competition with immobilised ligand	10 µM	–	remaining binding	80%
Cc1cnc2nc1Nc1cccc(c1)COC/C=C/COCc1cc(ccc1OCCN1CCOCC1)N2	binding	–	competition with immobilised ligand	0.1 µM	–	remaining binding	97%
Cc1ccc(-c2c(/C=C(\C#N)C(=O)NC(C)C)n(CCCO)c3ncnc(N)c23)cc1	cell-free assay	–	competition with immobilised ligand	1 µM	–	remaining binding	96%
CCN1CCN(Cc2ccc(NC(=O)c3ccc(C)c(NC(=O)c4cncc(-c5cnn(C)c5)c4)c3)cc2C(F)(F)F)CC1	binding	–	competition with immobilised ligand	1 µM	–	remaining binding	100%
CN1CC[C@@H](COc2cnc(C#N)cc2-c2ccn3nc(NC(=O)C4CC4)cc3c2)C1	enzyme activity	inhibitor	–	1 µM	–	inhibition	-4%
COc1cc(Nc2nc(C)cc(-c3cnn4nc(OC)ccc34)n2)cc(C(F)(F)F)c1	binding	–	competition with immobilised ligand	1 µM	–	remaining binding	63%
CNC(=O)C1CCN(c2cc(C)c(F)cc2NC(=O)c2ccc(-c3cc(O)ccc3C)c(C)c2)CC1	binding	–	competition with immobilised ligand	1 µM	–	remaining binding	100%
CCN1CCN(Cc2ccc(C(=O)Nc3ccc(C)c(NCc4cnc5[nH]ccc5c4OC)c3)cc2C(F)(F)F)CC1	binding	–	competition with immobilised ligand	1 µM	–	remaining binding	68%
C=CC(=O)N1CCCC(n2c(=O)c3ncccc3n(Cc3ccc(Oc4ccccc4)cc3)c2=O)C1 (stereo not shown)	cell-free assay	–	competition with immobilised ligand	1 µM	–	remaining binding	90%
C=CC(=O)N1CCc2ccc(-n3c(=O)ccc4cnc5ccc(-c6cnn(C)c6)cc5c43)cc21	–	–	KINOMEscan	1 µM	DMSO control	remaining binding	100%
CNC(=O)C[C@H](Cc1ccc(C#N)cc1)NC(=O)c1cc(-c2ccc(CN[C@H](C)c3ccc(C)cc3)o2)ccc1Cl	enzyme activity	inhibitor	–	1 µM	–	activity vs control	100%
COc1c(Cl)cccc1Nc1c(-c2ccncc2C#C[C@@]2(C)CCCN2C(=O)/C=C/CN(C)C)[nH]c2c1C(=O)NCC2	binding	–	competition with immobilised ligand	3 µM	–	remaining binding	27%
Nc1ncc2c(n1)-c1c([nH]c3ccc(C4=CCOCC4)cc13)CCC2	binding	–	competition with immobilised ligand	1 µM	–	remaining binding	100%
CNC1C[S+]2CC[S+]3CC[S+](C1)[Ru-4]321([N]=C=S)[n]2c3ccc(OC)cc3c3c4c(c5cc(F)c[n+]1c5c32)C(=O)NC4=O (stereo not shown)	–	–	KinomeScan	0.1 µM	untreated	remaining binding	88%
COc1cc(Nc2nccc(-c3cnn4nc(OC)ccc34)n2)cc(C(F)(F)F)c1	binding	–	competition with immobilised ligand	1 µM	–	remaining binding	94%
O=C(Cc1ccc(OCc2ccccc2)cc1)NC1(C(=O)O)CCN(C(=O)c2ccc(-c3cccc(Cl)c3)cc2)CC1	enzyme activity	inhibitor	–	10 µM	–	activity vs control	98%

For quick reference, copied from above:
Structure (SMILES)	observed	action	technique	concentration	reference	quantity	result
CCN1CCN(Cc2ccc(C(=O)Nc3ccc(C)c(NCc4cnc5[nH]ccc5c4OC)c3)cc2C(F)(F)F)CC1	binding	–	competition with immobilised ligand	1 µM	–	remaining binding	68%
